Published values collected from several papers.
Parts stem from different laboratories: compare values within a part only. Positions count from the first letter of the parent shown.

Block 1 — technique: RNA Bind-n-Seq; form: RNA; sample: in vitro; tested at: 365 nM; relative to: no-protein control; reading: higher = stronger binding; endpoint: RBNS enrichment (R)
Target: RNA binding protein fox-1 homolog 2, RRM domain, GST-SBP tag (RBFOX2, Homo sapiens, UniProt O43251-10, residues 100-194)
Notes: natural RNA segment, single round, ends assumed
Target sequence (chain): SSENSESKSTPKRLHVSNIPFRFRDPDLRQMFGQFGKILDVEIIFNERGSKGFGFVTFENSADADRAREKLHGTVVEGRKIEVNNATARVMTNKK
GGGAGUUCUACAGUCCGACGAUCGCGUAUUUAUUUAAGGCGAAAGCUUUGACCUGAGCUGUCUUCCUCUCCCCUGUACAUGUACUGUAGAAAUGUGUGAUGACAAACGGACUAAUAAAGAACAUUUGGUUGGUUGGAAUUCUCGGGUGCCAA: 0.923
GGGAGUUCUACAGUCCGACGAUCAGAGCCUGCUCCCCCACCCCCUCCCCAGGGGAGAGGGUCUGGAGAAGCAGUGAGCCGCAUCUUCUCCAUCUGGCAGGGUGGGAUGGAGGAGAAGAAUUUUCAGACCCCAGUGGAAUUCUCGGGUGCCAA: 0.45
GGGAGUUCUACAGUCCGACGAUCGGGUCUGCAGGUGUCACAUGAUCACAGUUCAGCGGGAGGCUUUCCGUACCCACACUGGCUGUAGCCACUUCAGUCCAUCUGCCCUCCAGAGGAGGGGUUUCUUCCUGAUUUGGAAUUCUCGGGUGCCAA: 0.298
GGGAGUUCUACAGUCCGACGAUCUGCAGUACAACUGGAAGCCAAAACAAGGUGGAAGAUGUCCUGAAUUAAGAUGUUUUCACCACAUUGUAUUACAGAGACAGCCAAUAAAUCUACUAUUUGAUUUCAAUAUGUGGAAUUCUCGGGUGCCAA: 0.22
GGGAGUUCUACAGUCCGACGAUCGGAAAAUGCUCAAGGAUUUGAAGGGGUGGAUUAGCACCCUGUGCCUCGGGGGUGGUUGUUCUUCAAGCAAGUUCUGCUUGCACUUUUGCAUUUGCCUAACAGACUUUUGCUGGAAUUCUCGGGUGCCAA: 0.595
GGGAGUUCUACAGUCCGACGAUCACAUGCGGGGACGGUCUCAAAUGCGUGAUCAGAGAAUCCUUCACCUUUGCUGAAAAGUGAGCUCAGAUCCAGCACCAUGUUCCUCCUGACCCAUCCUGUCUAUCUUCUCAUGGAAUUCUCGGGUGCCAA: 0.397
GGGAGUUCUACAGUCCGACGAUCGGUCUGGCUUGCCCCCUCCCUGGGCCUCCAUCACCCCUGAGCAUCCCUCUGGACUCAGAGGGAACAAGGUGGGAGAGAGAGUUUGAGACAGCUCCGUGUGGAGAGCUUAGUGGAAUUCUCGGGUGCCAA: 0.225
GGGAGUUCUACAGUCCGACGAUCAACUGCAAUCUGAUUGAUUAUAUUACAGAAUACAUACAAAAAAACAAAGUUGUCUUACCUGUCAGUGUAUGAAGCACUUUGCUCCUUAAGACAGACACCUUGGAACUUUCUGGAAUUCUCGGGUGCCAA: 0.348
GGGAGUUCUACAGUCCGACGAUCAAAAUAAUAAUAUACAGAGUUUAAUAGAAGGUGAUGUUUUGGUUUUGUUUUCCCAGAGGCUGCCAUAUGGUCUUUGAGUACGGGGAUGUCCCAAACUGGCCCACCAAUGAUGGAAUUCUCGGGUGCCAA: 0.567
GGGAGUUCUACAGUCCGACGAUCUUCAGUACCACUUGUUUUUAGCAGACUGUCAUGGCUGCAGCUCUGUCUCUCUUGGGGUAAACUUGCUACCCCUGUGGUUGGGUCUAUGGUGGGAAAUGAAACAGUGUUCUUGGAAUUCUCGGGUGCCAA: 0.519
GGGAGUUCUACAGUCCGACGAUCUGAGUUGCUGACUGAAUCUAUCUUAUACUGUGCUUCUGCAACAACAAAAAUUAUGCAGAAAAAUUCAUUUGAAUAUCCAUCACUUAAAUGGUGACAAUAACAACUUCAGAUGGAAUUCUCGGGUGCCAA: 0.531
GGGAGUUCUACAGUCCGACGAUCGGUGGGGGAGACAUAGCCCCACCAUGAGGACAUACAACUGGGAAAUACUGAAACUUGCUGCCUAUUGGGUAUGCUGAGGCCCCACAGACUUACAGAAGAAGUGGCCCUCCUGGAAUUCUCGGGUGCCAA: 0.361

Block 2 — target: CCNA1, cyclin fold, Cln2 fusion (human); technique: yeast growth competition, sequencing; sample: yeast; notes: weak parent motif; relative to: not given; reading: higher = stronger binding; endpoint: normalised enrichment score
Starting sequence: CDC25A docking peptide (human); PPHRRRLLFACSP
L8A: 0.274
C11E: 0.245
R5I: 0.343
S12P: 0.491
R4S: -0.149
R6E: 0.191
R5G: 0.543
P2F: 0.296
F9Q: 0.26
P2W: 0.266
R5C: 0.085
F9M: 0.275
H3N: 0.216
L8M: 0.244
C11G: 0.262
L8R: 0.174
P2A: 0.156
A10E: 0.134
R4T: 0.281
S12W: 0.408
P1V: 0.107
L8Q: -0.0429
S12F: 0.153
R4L: 0.17
C11N: 0.107

Block 3 — technique: DHFR PCA, deep sequencing; sample: yeast; added: (+)-ABA 710 µM; relative to: wild-type fitted maximum; reading: higher = stronger binding; endpoint: relative binding score
Target: ABI1, truncated, D143A, DHFR fusion (Arabidopsis thaliana)
Notes: methotrexate growth selection, single substitutions
Starting sequence: PYL1, truncated, DHFR fusion (Arabidopsis thaliana); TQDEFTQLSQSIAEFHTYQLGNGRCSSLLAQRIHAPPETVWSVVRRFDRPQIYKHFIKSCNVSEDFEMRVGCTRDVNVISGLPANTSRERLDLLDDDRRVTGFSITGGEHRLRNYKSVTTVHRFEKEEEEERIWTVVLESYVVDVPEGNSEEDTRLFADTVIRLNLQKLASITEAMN; partner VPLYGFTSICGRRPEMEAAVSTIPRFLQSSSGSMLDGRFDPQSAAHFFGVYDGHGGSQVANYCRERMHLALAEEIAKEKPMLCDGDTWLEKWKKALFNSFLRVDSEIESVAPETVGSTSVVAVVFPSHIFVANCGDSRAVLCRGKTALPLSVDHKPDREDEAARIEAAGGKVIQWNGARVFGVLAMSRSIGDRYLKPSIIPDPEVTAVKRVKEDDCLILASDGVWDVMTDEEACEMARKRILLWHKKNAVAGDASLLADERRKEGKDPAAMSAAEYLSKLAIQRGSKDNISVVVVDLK
F47K: -12.2%
T173P: 43.2%
E152C: 98.2%
E4T: 104%
H110W: 28.6%
I105Q: -10.7%
D65K: 105%
Q31F: 73.5%
D95Y: 89.1%
R49M: 99.6%
S59A: 101%
V44Q: 12.9%
S11E: 112%
T119Y: -10.8%
E14Y: 84.6%
D95W: 83.7%
Q19Y: 97.7%
V142P: -10.2%

Block 4 — technique: competition protein-binding microarray; form: double-stranded DNA, one strand shown; sample: in vitro; tested at: 2 µM; added: Pho4 competitor, 0.05 µM; reading: higher = stronger binding; endpoint: fluorescence intensity
Target: Centromere-binding protein 1, full length, His-tagged (CBF1, Saccharomyces cerevisiae, UniProt P17106, residues 1-351)
UniProt P17106, sequence (whole entry, looked up): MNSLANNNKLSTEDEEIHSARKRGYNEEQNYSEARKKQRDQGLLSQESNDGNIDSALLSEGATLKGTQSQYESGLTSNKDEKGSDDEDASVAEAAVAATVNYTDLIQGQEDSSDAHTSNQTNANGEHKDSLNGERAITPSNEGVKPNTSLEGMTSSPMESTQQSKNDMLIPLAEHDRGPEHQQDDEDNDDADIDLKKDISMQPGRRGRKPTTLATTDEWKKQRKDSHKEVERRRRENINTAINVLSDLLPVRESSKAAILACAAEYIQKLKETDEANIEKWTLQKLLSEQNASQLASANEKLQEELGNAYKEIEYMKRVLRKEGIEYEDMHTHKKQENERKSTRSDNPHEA
Notes: whole 60-bp probe, lowest competitor level
AAAGCGGTAATTTGTCCGGTGGGTGCAGATATCTATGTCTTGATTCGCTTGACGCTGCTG: 63.3 a.u.
GGCCACCTTGATCTGCATGTTTCTTCTAGGTGAGCTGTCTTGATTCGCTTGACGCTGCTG: 62 a.u.
GTCTTGTCTCATTGGTGCGTGGGTGTCCCCACTTCAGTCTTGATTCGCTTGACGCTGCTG: 87.2 a.u.
CGGGGTTAAGTTTGTTGGGTGGGTGGCTTGCAGCAGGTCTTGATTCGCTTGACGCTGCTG: 76.3 a.u.
AAAGCGGTAATTTTTCACGTGATCTCACATATCTATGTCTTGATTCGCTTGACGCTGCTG: 5720 a.u.
ACTTGGCAGTAAGAACACGTGTCGGTACCGGAGCGGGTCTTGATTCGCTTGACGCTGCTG: 1260 a.u.
GTCGGTCAACATCCGCACGATGTTCCGTTTTTCTTTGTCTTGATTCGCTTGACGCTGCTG: 74.7 a.u.
GCACTAGTCCAATAAGTCGTGCGATTCCAAAGTTCAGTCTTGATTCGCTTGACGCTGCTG: 86.1 a.u.
GGGTTTCCTTCTGGTATGATAAATGTGAGCCAAATGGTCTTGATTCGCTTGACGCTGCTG: 76 a.u.
CGGGGTTAAGTTTGCTGTGTGGGTGGCTTGCAGCAGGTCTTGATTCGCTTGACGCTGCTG: 54.6 a.u.
TTCATTGATGAAATTCACATGTTAATGGGTAATGGTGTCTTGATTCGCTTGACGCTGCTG: 164 a.u.
CTCTAAATCCCGAGTCACGCATACTTTGGCAGAAAGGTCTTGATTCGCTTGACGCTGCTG: 220 a.u.
TAATAGAGATATCACCACGTGTGGAGAATAGATTCAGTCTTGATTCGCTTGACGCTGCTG: 964 a.u.
AAAGCGGTAATTTTTCACGTGTAGTCAAATATCTATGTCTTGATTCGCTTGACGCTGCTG: 973 a.u.
AGGGGCCGTCCACCAAACGTGACTCGACGAGTTGACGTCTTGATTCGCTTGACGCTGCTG: 362 a.u.
GTCTTGTCTCATTGGACGGTGGGTGTCCCCACTTCAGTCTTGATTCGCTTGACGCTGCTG: 70.7 a.u.
AAAGCGGTAATTTGGTCGGTGGGTGCAGATATCTATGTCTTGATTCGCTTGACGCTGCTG: 67.3 a.u.
GTCTTGTCTCATTTTCACGTGGGTTTCCCCACTTCAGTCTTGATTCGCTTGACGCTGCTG: 600 a.u.
CGGGGTTAAGTTTGCGCCGTGGGTGGCTTGCAGCAGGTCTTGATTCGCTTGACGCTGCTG: 71.3 a.u.
CCGGAACAACCTTGGTGCATGACAGAACGTAGACCAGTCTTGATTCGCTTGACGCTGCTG: 69.7 a.u.
CGTCCTAGTGATTGTTTGGTGGGTGCCATGAGGAAGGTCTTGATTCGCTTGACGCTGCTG: 89.8 a.u.
CTTTCCCGATCTTGGTCCGTGGGTGTAGCACATTTGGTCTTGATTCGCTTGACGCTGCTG: 62.3 a.u.

Block 5 — target: FOSL2, bZIP domain (human); technique: DHFR protein complementation; sample: yeast; relative to: wild-type JUN-FOS pair; reading: higher = stronger binding; endpoint: binding fitness
Notes: single substitutions, most at no-binding floor
Starting sequence: JUN, bZIP domain (human); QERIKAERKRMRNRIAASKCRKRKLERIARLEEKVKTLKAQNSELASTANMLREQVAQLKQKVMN; partner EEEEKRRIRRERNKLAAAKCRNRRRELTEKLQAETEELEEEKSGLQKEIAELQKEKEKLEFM
A29M: -0.326 natural log
A49L: 0.0968 natural log
N42K: -0.118 natural log
S43E: 0.194 natural log
E54N: -0.0483 natural log
K34L: 0.0684 natural log
V56F: -1.24 natural log
L45F: -0.395 natural log
E54H: -0.0288 natural log
E33G: -0.106 natural log
K36Y: -0.0707 natural log
R53Y: -0.611 natural log
E33F: -0.175 natural log
Q41R: -0.121 natural log
L31W: -0.122 natural log
M51F: 0.0403 natural log

Block 6 — technique: protein binding microarray; form: double-stranded DNA, one strand shown; sample: in vitro; tested at: not given; relative to: not given; reading: higher = stronger binding; endpoint: E-score
Target: Histone acetyltransferase KAT6A, both winged helices, GST fusion (KAT6A, Homo sapiens, UniProt Q92794, residues 1-181)
Notes: 8-mer, flanks averaged, mean of 2 arrays, mostly near background
Construct (chain): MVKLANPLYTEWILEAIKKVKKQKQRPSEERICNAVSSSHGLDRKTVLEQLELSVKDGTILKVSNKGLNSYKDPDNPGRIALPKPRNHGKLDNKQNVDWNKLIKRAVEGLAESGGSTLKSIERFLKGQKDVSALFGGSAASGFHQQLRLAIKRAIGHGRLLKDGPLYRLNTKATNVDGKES
ATATACCA: -0.184
AGCACAAC: -0.106
GCACTAGC: 0.104
CCTGCTCA: -0.198
GCCCGTAC: 0.237
GAATCAGA: -0.15
CTCTTGGA: -0.0945
CCTCTTCA: -0.125
CAATGTGG: -0.0498
CAGGGTCA: -0.097
GCCCGGCA: 0.169
ACGCTTCC: 0.26
GTACACGA: 0.0805
CAAGATGC: -0.14
GACGAGTA: -0.035
ACATCCGG: 0.163

Excerpt of the above (block 6):
CAATGTGG: -0.0498
GCACTAGC: 0.104
GCCCGGCA: 0.169
ACATCCGG: 0.163
GCCCGTAC: 0.237
GAATCAGA: -0.15
CAAGATGC: -0.14
ACGCTTCC: 0.26
GTACACGA: 0.0805
